Measured values pooled from the literature.
± gives the spread as reported.

SMILES | system | setting | AUC(0-t) [ng·h/mL]
[2H]C([2H])([2H])NC(=O)c1ccc(N2C(=S)N(c3ccc(C#N)c(C(F)(F)F)c3)C(=O)C2(C)C)cc1F | healthy male humans, plasma | oral, 80 mg, fasting, soft capsules | 334000 ± 61500
CN1CCC[C@]1(C)/C=C/S(=O)(=O)NC(=O)Nc1c2c(cc3c1CCC3)CCC2 | human, plasma | oral, 50 mg twice daily, day 14, multiple ascending dose | 122000
C=CC(=O)Nc1cc(Nc2nccc(-c3cn(C4CC4)c4ccccc34)n2)c(OC)cc1N(C)CCNC | healthy Chinese male human, plasma | oral, 110 mg almonertinib, metabolite, [14C] single dose | 1030 ± 121
Cn1c(=O)oc2ccc(-c3ccc(CC(C#N)NC(=O)C4CNCCCO4)c(F)c3)cc21 (stereo not drawn) | human, plasma | 20 mg once daily, day 28, geometric mean | 3500
[2H]C([2H])([2H])Oc1cc2c(cc1OC([2H])([2H])[2H])[C@H]1CC(=O)[C@H](CC(C)C)CN1CC2 | human CYP2D6 extensive metabolizers, plasma | oral, 25 mg, fasted, arithmetic mean | 0.26
CC(C)[C@H](NC(=O)CNC(=O)[C@H](CCC(N)=O)NC(=O)[C@H](C)N)C(=O)O | human, both sexes, plasma | intravenous infusion, 15 mg/kg/h, 2 h infusion, geometric mean | 502
CCCOc1ccc(S(N)(=O)=O)cc1-c1nc2c(CCC)nn(C)c2c(=O)[nH]1 | healthy male humans, plasma | oral, 200 mg of udenafil, together with: dapoxetine 60 mg | 4680 ± 2720
O=C(CCc1ccc(CNC(C(=O)OC2CCCC2)C2CCCCC2)cn1)NO (stereo not drawn) | human, plasma | oral, 20 mg once daily, day 1, geometric mean | 76.7
CC(C)(O)c1ncc([S@](N)(=O)=NC(=O)Nc2c3c(cc4c2CCC4)CCC3)s1 | healthy human, fasted | oral, 100 mg single dose, tablet formulation | 74900
CN[C@@H](CCOc1cccc2ccccc12)c1ccccc1 | healthy male humans, fasted, plasma | oral, 60 mg of dapoxetine | 193 ± 126
O=C(CCc1ccc(CNC(C(=O)O)C2CCCCC2)cn1)NO (stereo not drawn) | human, plasma | oral, 40 mg once daily, day 1, geometric mean | 221
CCc1cc(Nc2nc(-c3ccc(-n4cnc(C)c4)c(F)c3)cs2)c(C)cc1C | human, plasma | oral, 400 mg once daily, day 14, geometric mean | 11900

Excerpt of the above:
SMILES | system | setting | AUC(0-t) [ng·h/mL]
CN1CCC[C@]1(C)/C=C/S(=O)(=O)NC(=O)Nc1c2c(cc3c1CCC3)CCC2 | human, plasma | oral, 50 mg twice daily, day 14, multiple ascending dose | 122000
